Published values from different studies.
Every numbered part comes from another study and shows a few of its results, in no order. Changes are numbered by the printed parent chain.

Set 1
Target: Ras GTPase-activating protein-binding protein 1, full length (G3BP1, Homo sapiens, UniProt Q13283)
UniProt Q13283, sequence (whole entry, looked up): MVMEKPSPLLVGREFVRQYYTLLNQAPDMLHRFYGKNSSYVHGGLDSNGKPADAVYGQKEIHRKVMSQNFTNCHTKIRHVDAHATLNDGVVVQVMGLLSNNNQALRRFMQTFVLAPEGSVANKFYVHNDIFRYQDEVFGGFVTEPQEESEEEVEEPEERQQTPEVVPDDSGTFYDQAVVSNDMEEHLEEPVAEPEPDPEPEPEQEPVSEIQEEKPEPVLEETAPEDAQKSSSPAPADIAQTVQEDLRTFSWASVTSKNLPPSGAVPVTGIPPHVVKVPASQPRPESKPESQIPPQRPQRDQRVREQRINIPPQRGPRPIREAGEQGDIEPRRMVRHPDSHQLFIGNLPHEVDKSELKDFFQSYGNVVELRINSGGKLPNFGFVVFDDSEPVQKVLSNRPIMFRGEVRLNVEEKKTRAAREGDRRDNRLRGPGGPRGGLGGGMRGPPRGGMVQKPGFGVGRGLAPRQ
Technique: RNA Bind-n-Seq
Molecule type: RNA
Medium: in vitro
Tested at: 200 nM
Notes: whole 134-nt RNA, ends assumed
Added: 150 mM KCl
Relative to: input library
Reading: higher = stronger binding
Constant ends, left off below: GGGAGUUCUACAGUCCGACGAUC … UGGAAUUCUCGGGUGUCAAGG
For `GUCCUGUGCUACACAUCGUAUGUACCGAAUCAAACCCAAACCCCCAAAUUUUUUUAAAAAAGUAUUAUGUUACGCCGUUCGGAUCUGCAC`, the log2 enrichment was -0.285.
`GAGGAGCUGCUGCUGGAGCCCGAGCCGGAGCCCGAGCCCGAAGAGGAGCCGCCCCGGCCCCGCGCCCCCCCGGGAGCUCCGGGCCCUGGG` gave a log2 enrichment of -1.23.
`UUACCGACACCGUAGAACAGAGCAAGAGGAGGAUGAAGAGCUAUUAACAGAAAGCUCCAAAGCAACCAAUGUUUGCACUCGAUUUGAAGA` has a log2 enrichment of -0.33.
With `CUCAAGUCCUGUGCUACACAUCGUAUGUACCGAAUCGGCCGGGCCGGGCCGGGAAAGUAUUAUGUUACGCCGUUCGGAUCUGCACUUCCA` the log2 enrichment was -0.474.
With `UCCUGUGCUACACAUCGUAUGUACCGAAUCGGGGCCCCCCGGGGCCCCCCGGCCCCCCGGAAAGUAUUAUGUUACGCCGUUCGGAUCUGC` the log2 enrichment was -0.011.
`AGUCCUGUGCUACACAUCGUAUGUACCGAAUCGGUUUUUUUGGAAAGGUUUUUUUGGAAAGUAUUAUGUUACGCCGUUCGGAUCUGCACU` has a log2 enrichment of -1.66.
`CUGUGCUACACAUCGUAUGUACCGAAUCGGGGUUUUUUUGGUUUUUUUGGGGUUUUUUUGGGAAAGUAUUAUGUUACGCCGUUCGGAUCU` has a log2 enrichment of -0.963.
`AAGUCCUGUGCUACACAUCGUAUGUACCGAAUCAAACCCAAACCCCCAAACCCAAAAAAGUAUUAUGUUACGCCGUUCGGAUCUGCACUU` gave a log2 enrichment of -0.623.
`UGGCCCUGGUGGCAUGCGAGGAGGAAGAGGUGGCCUCAUGGAUCGUGGUGGUCCCGGUGGAAUGUUCAGAGGUGGCCGUGGUGGAGACAG` has a log2 enrichment of 0.357.

Set 2
Target: CCNB2, cyclin fold, Cln2 fusion (human)
Technique: yeast growth competition, sequencing
Medium: yeast
Notes: weak parent motif
Relative to: not given
Reading: higher = stronger binding
Starting sequence: SLBP docking peptide (human); ARYKRKLLINDFG
`K4A`: “normalised enrichment score” 0.318.
`N10K`: “normalised enrichment score” 0.551.
`G13V` — result for “normalised enrichment score”: 1.26.
Under “normalised enrichment score”, `D11I` is recorded as 0.0906.
`R2T`: “normalised enrichment score” 0.962.
For `G13K`, “normalised enrichment score” read 0.946.
Under “normalised enrichment score”, `Y3D` is recorded as 0.306.
`I9V` — result for “normalised enrichment score”: 0.618.

Set 3
Target: RNA binding protein fox-1 homolog 2, RRM domain, GST-SBP tag (RBFOX2, Homo sapiens, UniProt O43251-10, residues 100-194)
Technique: RNA Bind-n-Seq
Molecule type: RNA
Medium: in vitro
Tested at: 365 nM
Notes: natural RNA segment, single round, ends assumed
Relative to: no-protein control
Reading: higher = stronger binding
Constant ends, left off below: GGGAGUUCUACAGUCCGACGAUC … UGGAAUUCUCGGGUGCCAA
Residues (chain): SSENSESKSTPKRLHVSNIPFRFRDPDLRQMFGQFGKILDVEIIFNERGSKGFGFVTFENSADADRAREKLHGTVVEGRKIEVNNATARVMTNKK
For `CCAGUGAACACAGAGCAGCUAGAGGCUCCUCCUCUGCUGGCUUAGGGUCAGAAGUACCUCACAGUGGUUGUGGACAUGGAAGAGUUUUGUCAACACAACACUUUGUCCCC`, “RBNS enrichment (R)” read 0.32.
`UCACUCCGGACAGUCCGACUUCCGUGUGGAAUGUCAGUCAGUCGGCUAGAGGAGUGGCAUCUGGAGCUCAGAAACGUGAGAGACUAUUUGUGUACAAAAGGCAGGAAAAA`: “RBNS enrichment (R)” 5.07.
`GACAGAGGUGUGAUUCCAGGCCUGGUGUCACAUGACACCAGCAUGCAUUGCAGGAUUAUUAGUGUAUUUUGAGUCUGUAAAAAUAAUAAAUAUGUUUGAAGUAGUUUCCC`: “RBNS enrichment (R)” 0.583.
`GCUCUAGGCUUGUCUCCAUGGGAACAGGAGGGGUGCCUUGUCAGCAAGCUCAUCCGCACAGAAGAGGGAAGAGGGAGAUGCGUGGGGAAACUGAGUGAGUCGGAUUCCUC`: “RBNS enrichment (R)” 0.925.
`CACUCCUUGCUUGAGUGGGUUAAAGGAACUAACAGUUGUCCCUUUAGGAGGACAAAAUGGGGUCAAGAGGACACAGAAGAGUUGUAUAGCACCAGAUUGGUUCCAAAUAG`: “RBNS enrichment (R)” 0.633.
Under “RBNS enrichment (R)”, `UUGGGACCACCCGUAUUUCAGUAGGACCUGGGUAGGGAUUGGAAGUACUUGGCAGGGCAGCAGCAAUCUUGCUGUGUUUGAUAUAACAUGCAUCCUUGGGCAGGUUGCCC` is recorded as 0.531.
`UACAAGGUGCCAGGCACCUCCUUUCUGCAUGUGCCUGCCUUUCUAGUAGCAGACAGAUGGAAACAUUGUCUCAUUUUGUCAAGGAGUCCAAAGAAAUGAUUAUAAAACCA` — result for “RBNS enrichment (R)”: 3.06.
`GUGCCAGUUUUAAGAAAGAAUUUCUGUGAAGUGUGAGGACUCUGGAGUCUAGCUCACAUAAAGAGAGUGUUAUAUAAAAAUCCGACAGCUGAACUAGGUUGCUCUUUUUU`: “RBNS enrichment (R)” 0.477.
`GUCCAAGAAUAAUCCAAGCUAGAGACACAAGGUGGGAAAACAUUUCAAAAAAAAAAAGUCCUCUUAAGGCCAGUAAUUUAUCUGAAAAGGUAUUUUAUCACACCUUGACA` — result for “RBNS enrichment (R)”: 0.462.
For `AUUCGUGACUGAGACCAUACGUGGCCUAUAAACCUAGCAUUUGGAGAAAGUUUGCUGACUUUUGUAACAUUGGCUGCCUUUGUGCAGAAGAAAAAAACAUGGUAGGGAAG`, “RBNS enrichment (R)” read 0.346.

Set 4
Substance: PhoQ, residues 284 288 289 292 302 303 TAVSDG
Technique: Sort-seq
Item: YFP reporter
Medium: E. coli
Notes: PhoQ-PhoP variant library
Added: 10 µM Mg2+
Relative to: high Mg2+ state
Reading: higher = stronger signaling
PhoP, residues 12 14 15 18 19 SHWTV (Escherichia coli, UniProt P23836) — fold induction: 0.838.
It gave 5.5 for fold induction (PhoP, residues 12 14 15 18 19 QYCSL (Escherichia coli, UniProt P23836)).
The fold induction was 0.991 (PhoP, residues 12 14 15 18 19 STHWV (Escherichia coli, UniProt P23836)).

A few entries again (set 2):
`K4A`: “normalised enrichment score” 0.318.
`N10K`: “normalised enrichment score” 0.551.
`G13V` — result for “normalised enrichment score”: 1.26.
